Measurements of several laboratories.
Parts stem from different laboratories: compare values within a part only. Changes are numbered by the printed parent chain.

Sample 1 — technique: protein binding microarray; molecule type: double-stranded DNA, one strand shown; medium: in vitro; tested at: not given; baseline: not given; reading: higher = stronger binding
Target: Histone acetyltransferase KAT6A, winged helix 2, GST fusion (KAT6A, Homo sapiens, UniProt Q92794, residues 85-181)
Notes: 8-mer, flanks averaged, mean of 2 arrays, mostly near background
Residues (chain): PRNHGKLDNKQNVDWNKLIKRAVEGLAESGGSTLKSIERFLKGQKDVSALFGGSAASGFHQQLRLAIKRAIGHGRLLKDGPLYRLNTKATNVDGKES
Sequence | E-score
CACTCCGC | 0.014
CGTCGCGC | 0.0895
GGCCCAGA | -0.0121
AGTTTCCG | 0.139
ATTTTGGG | 0.0253
GGAATATA | 0.0211
TCCATCCA | -0.125
ACACATGT | -0.203
CGATCTAA | 0.0641
ACTAAGTC | -0.146
CGGTGCAC | -0.0875
CCGCCGCC | 0.0863
CTACCAGA | -0.000465
AGTAAGTA | -0.151
AGTTTCTG | -0.013
TCCGAAGA | 0.245
ATGCGGGA | 0.144
AACCGCAA | 0.175

Sample 2 — technique: RNA Bind-n-Seq; molecule type: RNA; medium: in vitro; tested at: 365 nM; baseline: no-protein control; reading: higher = stronger binding
Target: RNA binding protein fox-1 homolog 2, RRM domain, GST-SBP tag (RBFOX2, Homo sapiens, UniProt O43251-10, residues 100-194)
Notes: natural RNA segment, single round, ends assumed
All sequences stand within: GGGAGUUCUACAGUCCGACGAUC … UGGAAUUCUCGGGUGCCAA
Residues (chain): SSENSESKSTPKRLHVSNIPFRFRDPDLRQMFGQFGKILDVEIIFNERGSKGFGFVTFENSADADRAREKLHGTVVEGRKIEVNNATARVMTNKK
Sequence | RBNS enrichment (R)
CACUGAGCCUUUCGCCCUGGAAGUUCUUGGCCCAGGGUCUUCAACUUGUUUGCACGACCACUUCCAGCUUGCUGCUUCCUUCAGUUCCCCAGGCUCCUCCUCCAAAUGCC | 2.52
AAGACCUAUUUAAUAAUUGGUGCAUAAAUGAAAGUAGUACUGUAUACUUGAAACUGUUUAAGUACAAGUUGAACAAAAAUUAUGAAAAGGUAUAUUUGCUUCUCGGGAAA | 0.586
UGUAUAGUGGCUAACUUAAGGGGAGUGGGUGACCCUGACACUUCCAGGCACUGUGCCCAGGGUUUGGGUUUUAAAUUAUUGACUUUGUACAGUCUGCUUGUGGGCUCUGA | 1.16
UGUAAAGAGACACCAUGACAAAGACAACUCAUAUAAAAGGAAGUGUUGAGUUGGGGGCUUGCUUAUAGUUUCAGAGUUGAGUUUAUUUGCAUGGUGUCAGGCAGGCAGGA | 1.05
CCUUCUGACACACAAAAAAAUGAAAGUUAAUCCUGGGUACAGCAUACAGUUUUACAUUUAAACGCACAGUCUUACGUGGACAAAUGCAAGCACAAGCCUAAAGCAAGGUC | 0.289
UCCAACCAGCAAAAUUUUGAUCAAAUUUGAACAAAAACCCAAAAACCUAAAACUGUUGAGCAGGUUGCGAUGAGGAGCACAGGGCUAGCUGCAGAGCUGGAUCCUCAGGA | 0.315
UCCUAUUGAACCAUGUUUGUGGCUAUUAAAACUCUUUUAACAGUCUGGGCUGGGUCCGGUGGCUCACGCCUGUAAUCCCAGCAAUUUGGGAGUCCGAGGCGGGCGGAUCA | 3.53
GCUUCCCGCCAGUUUCUCUCAGUUUGCCAAAGAGACCAUUGAAUGUUUUUGAAACCAAAGAGCACACUUCAACAUACAUGGGCUGCACCAUAUUGAGAUCUGAGCCUUGG | 4.17
AAAGCCUAAAGCCCUUUAGCGUUGUGAACCUCAGUAGUAGCUGAAAGAGAAGCUGCCACAGGUUGUACUUGCUCUGUGAGAUGUUGUAGACAUUCCGUAAGAGAAUCCAG | 0.345
AGAUUCUCUGUCCUUUGCACAUAACUUUCUUUUAAACUUAGUUCUAACCCUAAAUCUUGACAUCAGAAAGUGUUUGCACUGUAUAAACAAUGUUAGCUGAAAGCAUGUUU | 1.34
UGGAAGUGGAGCCAAGUUUCAGGAUUUGCAUCCCAAGAGUCUCUAAGAAUUCUUGCCAUGGUCCUAAAAACUGGAUUUUAAGAUUAUUUUACUUCCCCUUCAUGCCUGUC | 0.689
UAGAAAAAUUCUUUUAAAAUUGACAGAAGAUAAUUUAUACCUUUUAUGGACUCUGAAGACACUUCAAAACAUUAAAAGUCCUUAUGUCUUUGGUAAUGAAACAAUAACAC | 0.57

Sample 3 — technique: DHFR PCA, deep sequencing; medium: yeast; added: (+)-ABA 200 µM; baseline: wild-type fitted maximum; reading: higher = stronger binding
Target: ABI1, truncated, D143A, DHFR fusion (Arabidopsis thaliana)
Notes: methotrexate growth selection, single substitutions
Starting sequence: PYL1, truncated, DHFR fusion (Arabidopsis thaliana); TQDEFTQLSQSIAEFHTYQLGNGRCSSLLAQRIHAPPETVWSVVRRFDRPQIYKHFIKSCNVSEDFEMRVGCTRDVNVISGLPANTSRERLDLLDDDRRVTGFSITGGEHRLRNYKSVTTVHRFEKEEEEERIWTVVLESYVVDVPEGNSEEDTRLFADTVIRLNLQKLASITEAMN
Change | relative binding score [%]
F5Q | 98
T73M | 107
N77H | 107
H122I | 44.5
L29C | 85.4
T160I | 75.9
K54C | 3.5
I33C | 90.8
L164M | 105
T120N | -0.131
R111S | 65.5
E174H | 81.8
C25T | 103
T119D | 9.58
E152W | 89.4
T86M | 94
G23Q | 88.5

Mixed results
Substance | target | assay | test system | setting | scale | quantity | result
PhoQ, residues 284 288 289 292 302 303 TLMATV | PhoP, residues 12 14 15 18 19 NYFTV (Escherichia coli, UniProt P23836) | Sort-seq, refers to: YFP reporter | E. coli | PhoQ-PhoP variant library, added: 10 µM Mg2+ | baseline: high Mg2+ state, higher = stronger signaling | fold induction | 12.3

Repeated from above (sample 2):
Sequence | RBNS enrichment (R)
AAAGCCUAAAGCCCUUUAGCGUUGUGAACCUCAGUAGUAGCUGAAAGAGAAGCUGCCACAGGUUGUACUUGCUCUGUGAGAUGUUGUAGACAUUCCGUAAGAGAAUCCAG | 0.345
AGAUUCUCUGUCCUUUGCACAUAACUUUCUUUUAAACUUAGUUCUAACCCUAAAUCUUGACAUCAGAAAGUGUUUGCACUGUAUAAACAAUGUUAGCUGAAAGCAUGUUU | 1.34
UGGAAGUGGAGCCAAGUUUCAGGAUUUGCAUCCCAAGAGUCUCUAAGAAUUCUUGCCAUGGUCCUAAAAACUGGAUUUUAAGAUUAUUUUACUUCCCCUUCAUGCCUGUC | 0.689
